Published values pooled from the literature.
Each numbered part is a random draw from the data of one study; scales do not carry over between parts. Changes are numbered by the printed parent chain.

Series 1 — target: CCNA1, cyclin fold, Cln2 fusion (human); method: yeast growth competition, sequencing; matrix: yeast; setting: weak parent motif; baseline: not given; reading: higher = stronger binding; endpoint: normalised enrichment score
Starting sequence: PKMYT1 docking peptide (human); SFEPRNLLSLFED; partner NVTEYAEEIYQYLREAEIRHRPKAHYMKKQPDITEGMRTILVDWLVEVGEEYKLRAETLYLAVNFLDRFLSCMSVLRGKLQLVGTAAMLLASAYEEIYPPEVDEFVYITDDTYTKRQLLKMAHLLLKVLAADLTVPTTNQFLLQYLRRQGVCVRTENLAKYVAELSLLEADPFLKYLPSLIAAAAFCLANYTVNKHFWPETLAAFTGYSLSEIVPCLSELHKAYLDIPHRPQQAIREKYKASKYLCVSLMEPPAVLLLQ
Variant = SFEPRNLLILFED [S9I]; value = 0.131
Variant = SFEPRNLLTLFED [S9T]; value = 0.156
Variant = SFEPRNLMSLFED [L8M]; value = 0.369
Variant = SFEPRWLLSLFED [N6W]; value = 0.198
Variant = SFEPRNLLSLFAD [E12A]; value = -0.02
Variant = SFEPRNLLVLFED [S9V]; value = 0.401
Variant = SFEPRNYLSLFED [L7Y]; value = 0.0759
Variant = SFEPRNWLSLFED [L7W]; value = 0.137
Variant = SHEPRNLLSLFED [F2H]; value = -0.0721
Variant = SFEPRNLLSLFEL [D13L]; value = 0.0958
Variant = CFEPRNLLSLFED [S1C]; value = 0.239
Variant = SFEPRNLLSLKED [F11K]; value = 0.163
Variant = QFEPRNLLSLFED [S1Q]; value = 0.164
Variant = SFEPRNLASLFED [L8A]; value = 0.501
Variant = SFEPRNLLSWFED [L10W]; value = 0.236
Variant = SFEPRNLLKLFED [S9K]; value = -0.0533
Variant = SFEPRNLLSLGED [F11G]; value = 0.0412
Variant = SFRPRNLLSLFED [E3R]; value = 0.112
Variant = SFEPRNLLNLFED [S9N]; value = -0.175
Variant = SYEPRNLLSLFED [F2Y]; value = 0.0947
Variant = SFQPRNLLSLFED [E3Q]; value = 0.2
Variant = SFEQRNLLSLFED [P4Q]; value = 0.297
Variant = YFEPRNLLSLFED [S1Y]; value = -0.0293
Variant = SFEPRNRLSLFED [L7R]; value = 0.111
Variant = SFEPTNLLSLFED [R5T]; value = 0.0439

Series 2 — method: protein binding microarray; molecule type: double-stranded DNA, one strand shown; matrix: in vitro; concentration: not given; baseline: not given; reading: higher = stronger binding; endpoint: E-score
Target: Histone acetyltransferase KAT6A, both winged helices, GST fusion (KAT6A, Homo sapiens, UniProt Q92794, residues 1-181)
Setting: 8-mer, flanks averaged, mean of 2 arrays, mostly near background
Target sequence (chain): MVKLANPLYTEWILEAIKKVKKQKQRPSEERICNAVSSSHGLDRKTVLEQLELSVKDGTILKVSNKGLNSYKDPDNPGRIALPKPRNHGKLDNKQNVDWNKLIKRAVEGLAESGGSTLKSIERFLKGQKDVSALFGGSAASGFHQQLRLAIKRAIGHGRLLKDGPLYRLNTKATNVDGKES
Oligonucleotide = GGCGCAAC; value = 0.15
Oligonucleotide = GATATCCA; value = -0.114
Oligonucleotide = CACCTAAG; value = -0.0895
Oligonucleotide = CCTGGAAC; value = -0.188
Oligonucleotide = TACTCCAA; value = -0.156
Oligonucleotide = CGCAATGC; value = 0.232
Oligonucleotide = CACATCAC; value = -0.0307
Oligonucleotide = ACTCGCAC; value = 0.12
Oligonucleotide = TCTGCACA; value = -0.0271
Oligonucleotide = ACACCGCG; value = 0.346
Oligonucleotide = CAAGAATC; value = -0.0519
Oligonucleotide = GAGCGTCC; value = 0.011
Oligonucleotide = CATATTAC; value = 0.0528
Oligonucleotide = CGCCTGGA; value = -0.00529
Oligonucleotide = GCTTATAA; value = -0.0595
Oligonucleotide = CAGATTAA; value = -0.104
Oligonucleotide = ACTCACTC; value = -0.0348
Oligonucleotide = ACTCTGAT; value = 0.071
Oligonucleotide = ATATACGC; value = 0.154
Oligonucleotide = ATCCTGAC; value = -0.126
Oligonucleotide = GATTAGGC; value = -0.112
Oligonucleotide = AGGACCTC; value = 0.00147
Oligonucleotide = ACATGGTA; value = 0.00645
Oligonucleotide = CTAAGGGA; value = -0.114
Oligonucleotide = GGATTACA; value = -0.0736

Series 3 — method: RNA Bind-n-Seq; molecule type: RNA; matrix: in vitro; concentration: not given; setting: RNA with constant flanks, ends assumed; baseline: input RNA pool; reading: higher = stronger binding; endpoint: bound/input enrichment
Target: RING finger protein unkempt homolog, zinc fingers 1-6, GST-SBP tag (UNK, Homo sapiens, UniProt Q9C0B0, residues 30-357)
Constant ends, left off below: GGGAGUUCUACAGUCCGACGAUC … CAACAGAGGAUUGAGCAUCA
Construct (chain): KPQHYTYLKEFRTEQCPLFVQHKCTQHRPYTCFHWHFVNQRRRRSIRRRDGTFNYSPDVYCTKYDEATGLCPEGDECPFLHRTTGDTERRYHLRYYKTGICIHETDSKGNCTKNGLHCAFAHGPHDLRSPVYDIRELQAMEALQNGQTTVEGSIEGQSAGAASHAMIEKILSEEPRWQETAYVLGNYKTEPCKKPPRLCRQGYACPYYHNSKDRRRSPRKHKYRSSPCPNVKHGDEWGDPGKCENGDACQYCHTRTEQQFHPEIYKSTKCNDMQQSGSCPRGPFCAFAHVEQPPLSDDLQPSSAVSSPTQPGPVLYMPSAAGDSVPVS
Oligonucleotide = AUCUCUGCUAUGAACAAGGUUGCAGAAGUUUUACAAGUACCUCCAAUGAGAGUAUAUGAAGCCGCAACUUUUUAUACAAUGUAUAAUCGAAAGCCAGUUGGAAAGUAUCACAUUCAGGUC; value = 0.101 ratio
Oligonucleotide = GAUGGAUUUUACUUUUCAACAACAUAUGAUUUGACCCAUACUUUGCAGCGGCUAUCCAACACCCGUCCUGAAUUCCAAGAAAUGAGUCUCUUGGAAAGGGCAGAUCAGCGGUUUGUAUGG; value = 0.203 ratio
Oligonucleotide = UCCGCUCGGAAAAUGCGCCUGGGAGAUGCUGUUGAACAGGGUGUGAUUAAUAACACAGUAUCCGGCUAUUUCAUUGGCCGCAUCUACCUCUACCUCACGAAGGUUGGAAUAUCUCCAGAU; value = 0.0977 ratio
Oligonucleotide = AAAAACCUGGAGAAAAUUAGCAGACAGUCUAGUGUGCUCAUGGAUAACAUGAAACACCUAUCCGAGCUAAAUAAAUUAAUAAUGAAAUCACAGCAGGAAUCUUGGGAUUUAGAGGAAAAA; value = 1.69 ratio
Oligonucleotide = CCAAUUUUCUGGAUUGGACUGAUCAGUUCAGUUUGCUGUGUGUUUGCUCAAACAGAUGAAAACCGAUGUUUAAAAGCAAAUGCCAAAUCAUGUGGAGAAUGUAUACAAGCAGGGCCAAAU; value = 0.136 ratio
Oligonucleotide = GUGCUGAGUUACACCAGAAUGUAAAUGUGAAGAACAUAAUCAUUGCUUUAAUUGACCGAUCCGCUUUAUUUGCUCACCGUGAAGAUGGACCUGGAAUCCCAGCGGAUAUUAAACUUUUUG; value = 0.248 ratio
Oligonucleotide = UUAAUGUCUGCCAGAACACAAUUUAUAUGCCUUAUUGGCUUCAUUAAACUUUUAGAAAACUUCCGCAUUUGUUACUUUUUUCCAUUGCGUUUACUUUCAAAUGCACCUAAUGAAUUUGUC; value = 1.08 ratio
Oligonucleotide = UCUCCAGAACAUAAAGAACUGUCUAACUCCCCACUCAGGGAGAACAGCUUUGGAUCACCUUCCGAAUUUAGAAACUCAGGCCCACUUGGUACAGAAAUGAAUACUGGAUUUUCUUCUGAG; value = 0.195 ratio

Series 4 — method: RNA Bind-n-Seq; molecule type: RNA; matrix: in vitro; concentration: 200 nM; setting: whole 134-nt RNA, ends assumed; together with: 150 mM KCl; baseline: input library; reading: higher = stronger binding; endpoint: log2 enrichment
Target: Fragile X messenger ribonucleoprotein 1, C-terminal low-complexity region (Fmr1, Mus musculus, UniProt P35922)
Constant ends, left off below: GGGAGUUCUACAGUCCGACGAUC … UGGAAUUCUCGGGUGUCAAGG
Oligonucleotide = UGGGAGGUGGAUUUUAUUUAUUUUUUUAGCUCAUUUCCAGGGGUGGGAAUUUUUUUUUAAUAUGUGUCAUGAAUAAAGUUGUUUUUGAAA; value = 0.206
Oligonucleotide = CCUCAAGUCCUGUGCUACACAUCGUAUGUACCGAAUCGGCCGGCCGGGCCGGAAAGUAUUAUGUUACGCCGUUCGGAUCUGCACUUCCAG; value = -0.146
Oligonucleotide = AGUCCUGUGCUACACAUCGUAUGUACCGAAUCGGGUUUUUGGGGUUUUUGGUUUUUGGAAAGUAUUAUGUUACGCCGUUCGGAUCUGCAC; value = -0.192
Oligonucleotide = AAGUCCUGUGCUACACAUCGUAUGUACCGAAUCGGGGUUUGGGUUUGGGGUUUGGGGAAAGUAUUAUGUUACGCCGUUCGGAUCUGCACU; value = 0.721
Oligonucleotide = UGGCCCUGGUGGCAUGCGGGGAGGAAGAGGUGGCCUCAUGGAUCGUGGUGGUCCCGGUGGAACGUUCAGAGGUGGCCGUGGUGGAGACAG; value = 0.0597
Oligonucleotide = GUCCUGUGCUACACAUCGUAUGUACCGAAUCGGGGUUUUUGGGGUUUGGGGUUUGGGGAAAGUAUUAUGUUACGCCGUUCGGAUCUGCAC; value = 1.05
Oligonucleotide = UGGCCCUGGUGGCAUGCGGGGAGGAAGAGGUGGCCUCCUGGAUCGUGGUGGUCCCGGUGGAAUGUUCAGAGGUGGCCGUGGUGGAGACAG; value = 0.00923
Oligonucleotide = UCCUGUGCUACACAUCGUAUGUACCGAAUCGGGUUUUUUGGUUUUUUGGGGUUUUUUGGAAAGUAUUAUGUUACGCCGUUCGGAUCUGCA; value = -0.0535
Oligonucleotide = UGGCCCUGGUGGCAUGCGGGGAGGAAGAGGUGGCCUCAUGGAUCGUGGUGGUCCCGGUGGAAUGUUCAGAGGUGGCCGUGGUGGAGAAAG; value = 0.243
